Assay results from different studies.
Numbers after ± are the reported error.

| Compound | tested on | test | test system | conditions | how to read | quantity | result |
| --- | --- | --- | --- | --- | --- | --- | --- |
| CC(=NN=c1[nH]c2cc(F)c(F)cc2n1C)c1ccc(F)cn1 | – | item: CD31 | MDA-MB-231 xenograft, SCID mice | 10 mg/kg/day | baseline: vehicle | microvascular density reduction | 40% |
| COC(=O)[C@@H]1C(C=Nc2ccccc2)=Cc2cc3c(cc2[C@H]1c1cc(OC)c(OC)c(OC)c1)OCO3 | Leishmania | – | mouse splenocytes | – | baseline: CC50 over amastigote EC50 | selectivity index | > 5.1 |
| Cc1ncsc1-c1ccc([C@H](C)NC(=O)[C@@H]2C[C@@H](O)CN2C(=O)[C@@H](NC(=O)CCCCCCC(=O)N2CCN(C[C@]3(C)CCC(c4ccc(Cl)cc4)=C(CN4CCN(c5ccc(C(=O)NS(=O)(=O)c6ccc(N[C@H](CCN7CCOCC7)CSc7ccccc7)c(S(=O)(=O)C(F)(F)F)c6)cc5)CC4)C3)CC2)C(C)(C)C)cc1 | – | – | naturally aged mice, liver | intraperitoneal, 5 mg/kg every 3 days | – | SA-β-gal staining | decreased |
| C=CC(=O)N1CCC(c2cc(Nc3cc4n(n3)CCOC4)c3ncnn3c2)C1 (single isomer, unassigned) | TMD8 | calcium flux, FLIPR | – | 1 h preincubation, with: anti-IgM | – | IC50 | > 1 µM |
| CCn1nccc1N=CC1=Cc2cc3c(cc2[C@@H](c2cc(OC)c(OC)c(OC)c2)[C@@H]1C(=O)OC)OCO3 | Leishmania infantum | iRFP fluorescence | mouse splenocytes infected, amastigote, iRFP, ex vivo splenic explant | 48 h | – | EC50 | 25.3 ± 1 µM |
| C[C@@H]1CN(C2CCC2)CC[C@H](O[C@H]2[C@@H](O)C[C@H](O[C@H]3[C@@H](O)C[C@H](O[C@H]4CC[C@@]5(C)[C@H](CC[C@@H]6[C@@H]5C[C@@H](O)[C@]5(C)[C@@H](C7=CC(=O)OC7)CC[C@]65O)C4)O[C@@H]3C)O[C@@H]2C)O1 | – | – | rat hippocampal slices | 1 µM, 24 min | – | baseline extracellular K+ | 3.36 ± 0.11 mM |
| COc1cc([C@@H]2c3cc4c(cc3[C@H](CC(C)C)[C@H]3COC(=O)[C@H]23)OCO4)cc(OC)c1OC | Leishmania infantum | Alamar Blue | HepG2 | – | baseline: CC50 HepG2 over EC50 amastigotes | selectivity index | > 6.4 |
| CCOc1ccccc1Nc1nnc(SCC(=O)Nc2cc(F)ccc2F)s1 | A549 spheroids with human PBMCs | – | – | 25 µM, 48 h, with: soluble anti-CD3 | baseline: anti-CD3 alone | IL-2 reduction | > 70% |
| CCOC(=O)C1=C(C)NC2=C(C(=O)CC(C)(C)C2)C1c1ccc(OCC(=O)NN=Cc2cccc(C=O)c2)cc1OCC(=O)NN=Cc1cccc(C=O)c1 (stereo not shown) | Brevibacillus brevis | – | – | concentration not given, 24 h | – | inhibition zone diameter | 8.1 ± 0.01 mm |
| CCC1NC(=O)C(CCCNC(=N)N)NC(=O)C(C)(NC(=O)C(C)C)CCCCNC(=O)C(c2ccccc2)NC1=O (stereo not shown) | – | immunoblot | MLL-AF9 leukaemia cells, mouse | dose not given, 4 days | – | H4K16ac level | no effect |
